Results of several laboratories.
Compare with care: the assays were run in different laboratories.

| SMILES | test | system | conditions | how to read | endpoint | value |
| --- | --- | --- | --- | --- | --- | --- |
| Cc1ccc(Sc2ccccc2N2CCNCC2)c(C)c1 | TEAE abdominal distension | healthy adult men | oral, 20 mg single dose, 10 days |  | adverse event incidence | 0% |
| O=C1CCc2ccc(OCCCCN3CCN(c4cccc(Cl)c4Cl)CC3)cc2N1 | measured: Sedation | patients, CYP2D6 ultrarapid metabolizers | dose not given, long-acting oral or depot |  | adverse event incidence | 21% |
| CC(=O)O[C@H]1C(=O)[C@@]2(C)[C@H]([C@H](OC(=O)c3ccccc3)[C@]3(O)C[C@H](OC(=O)[C@H](O)[C@@H](NC(=O)c4ccccc4)c4ccccc4)C(C)=C1C3(C)C)[C@]1(OC(C)=O)CO[C@@H]1C[C@@H]2O |  | patients with advanced solid tumours | intravenous, dose not given, phase Ib, all relationships |  | adverse events, any | 100% |
| Cc1c(Cl)c(C)[n+]([O-])c(Cl)c1-c1noc(-c2cc(O)c(O)c([N+](=O)[O-])c2)n1 | measured: Bloating | healthy Caucasian subjects | oral, 50 mg, 20 days |  | adverse drug reaction incidence | 0% |
| Cc1c(C(=O)O)ccc2c3n(nc12)[C@@H]1[C@H](C3)N(CC2CC2)[C@@]2(C(=O)Nc3cc(Cl)ccc32)[C@H]1c1cccc(Cl)c1F | phase Ia trial, measured: Alopecia | cancer patients | oral, dose not given |  | adverse event incidence | 24% |
| CC[C@H](C)[C@H](NC(=O)[C@H](Cc1ccccc1)NC(=O)[C@H](CCC(=O)O)NC(=O)[C@H](CCCCNC(=O)COCCOCCNC(=O)COCCOCCNC(=O)CC[C@H](NC(=O)CCCCCCCCCCCCCCCCC(=O)O)C(=O)O)NC(=O)[C@H](C)NC(=O)[C@H](C)NC(=O)[C@H](CCC(N)=O)NC(=O)CNC(=O)[C@H](CCC(=O)O)NC(=O)[C@H](CC(C)C)NC(=O)[C@H](Cc1ccc(O)cc1)NC(=O)[C@H](CO)NC(=O)[C@H](CO)NC(=O)[C@@H](NC(=O)[C@H](CC(=O)O)NC(=O)[C@H](CO)NC(=O)[C@@H](NC(=O)[C@H](Cc1ccccc1)NC(=O)[C@@H](NC(=O)CNC(=O)[C@H](CCC(=O)O)NC(=O)C(C)(C)NC(=O)[C@@H](N)Cc1cnc[nH]1)[C@@H](C)O)[C@@H](C)O)C(C)C)C(=O)N[C@@H](C)C(=O)N[C@@H](Cc1c[nH]c2ccccc12)C(=O)N[C@@H](CC(C)C)C(=O)N[C@H](C(=O)N[C@@H](CCCNC(=N)N)C(=O)NCC(=O)N[C@@H](CCCNC(=N)N)C(=O)NCC(=O)O)C(C)C | measured: Nausea | type 2 diabetes patients | dose not given | relative to: subjects | adverse event incidence | 40% |
| Cc1cc(Nc2ccc(S(F)(F)(F)(F)F)cc2)n2nc(C(C)(F)F)nc2n1 |  | Plasmodium vivax malaria patients | oral, 400 mg |  | adverse event abdominal pain | 20% |
| FC(F)(F)c1ccc(CNc2ccc(Cc3c[nH]c4ncc(Cl)cc34)cn2)cn1 | measured: periorbital oedema | patients with advanced solid tumours | oral, dose not given, phase Ib, related to compound |  | adverse events, all grades | 13% |

A few entries again:
| SMILES | test | system | conditions | how to read | endpoint | value |
| --- | --- | --- | --- | --- | --- | --- |
| Cc1c(Cl)c(C)[n+]([O-])c(Cl)c1-c1noc(-c2cc(O)c(O)c([N+](=O)[O-])c2)n1 | measured: Bloating | healthy Caucasian subjects | oral, 50 mg, 20 days |  | adverse drug reaction incidence | 0% |
